Assay results of several laboratories.
A part holds a random share of what one study measured. Changes are numbered by the printed parent chain.

Block 1
Target: Interferon regulatory factor 5, full length, phosphomimetic (IRF5, Homo sapiens, UniProt Q13568-2, residues 1-514, K96S/S451D/S453D/S456D/S462D)
Method: protein-binding microarray
Molecule type: double-stranded DNA, one strand shown
Matrix: in vitro
Concentration: 250 nM
Notes: 60-bp whole probe
Added: salmon DNA 0.4 mg/ml
Relative to: random background probes
Reading: higher = stronger binding
Constant ends, left off below: GCCTAGCAC … GTCTTGATTCGCTTGACGCTGCTG
Oligonucleotide | log fluorescence
CTAGGTATCCTTATCCTTTAGTGCTAG | -0.078 z-score
GACGGTATCAGTATCGAGACGTGCTAG | 3.2 z-score
GACGGTATCGGTCTCGGGCCGTGCTAG | 5.3 z-score
GACGAACTTGGGTTTCGAGACGTGCTA | 1.72 z-score
GACGCTATCCTTCTCCTGACGTGCTAG | 0.237 z-score
TCACCTTTTTTGTTGTTACTGTGCTAG | 1.06 z-score
TTAGAACTGAGACTGTATTAGTGCTAG | 0.0284 z-score
TTAGGTCTCGGTATCAGTTAGTGCTAG | 1.63 z-score
GAACCTTGGGCTCTAGGTTCGTGCTAG | -0.381 z-score
GACGATGTCGGGACTGGAGACGTGCTA | -0.438 z-score
TTAGATATCCTACTGCTTTAGTGCTAG | 0.248 z-score
TTAGGACTGAGTATCGGTTAGTGCTAG | 6.49 z-score
GACGATATCAGTAGCGAGACGTGCTAG | 0.743 z-score
TCACCACTCTTTCCTCACACTGTGCTA | 0.624 z-score
GACGATCTCAGCATCGAGACGTGCTAG | -0.224 z-score

Block 2
Target: CCNF, cyclin fold, Cln2 fusion (human)
Method: yeast growth competition, sequencing
Matrix: yeast
Notes: strong parent motif
Relative to: not given
Reading: higher = stronger binding
Parent: SGO1 docking peptide (human); PLAKRALKYTDEK
Change | normalised enrichment score
PLAKRALKYADEK [T10A] | 3.89
PLAKRALAYTDEK [K8A] | 1.47
PAAKRALKYTDEK [L2A] | 5.24
PLAKAALKYTDEK [R5A] | 0.126
PLAKRAAKYTDEK [L7A] | 0.392
PLAKRALKYTDAK [E12A] | 2.89

Block 3
Target: RNA binding protein fox-1 homolog 2, RRM domain, GST-SBP tag (RBFOX2, Homo sapiens, UniProt O43251-10, residues 100-194)
Method: RNA Bind-n-Seq
Molecule type: RNA
Matrix: in vitro
Concentration: 365 nM
Notes: natural RNA segment, single round, ends assumed
Relative to: no-protein control
Reading: higher = stronger binding
Constant ends, left off below: GGGAGUUCUACAGUCCGACGAUC … UGGAAUUCUCGGGUGCCAA
Target sequence (chain): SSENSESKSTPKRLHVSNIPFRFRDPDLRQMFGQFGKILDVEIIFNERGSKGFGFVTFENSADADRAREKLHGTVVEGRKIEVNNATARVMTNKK
Oligonucleotide | RBNS enrichment (R)
GCAGGACAUCGUUCUCCCUGGCUGCAUCCACUCAGUGCUGGGAGUAGUCCCCAGUUAUUAUGAAACCACCAAUAACCCACUGACCACAGUGAGAACCACUGAUUUUUUCC | 0.861
GAGGCCAAGAUUUUUCUGCACACGGAGUGUGGGGAUAGGAGCCGGGCCAAGCGCUGGCCCCUCAGCGGUGAGCCCUGCCCACUCUUACCGAGCAAGGUGGGUGGCUCUGG | 0.36
AAAGAUGCCCUAUCCAUGAGAUGCCUUUUCAUCUGCAAACUCUGCAAAAUGUGUCUCAUGUUUCGCAACUCUUUUUUUCCCCCUCGCUCCCGCCUACCCCGUCGGCAUUU | 0.356
CCAUGCAACAACCACCACCUUAUACAUCACUUCCUGUUUUAAGCAGCUCUAAAACAUAGACUGAAGAUUUAUUUUUAAUAUGUUGACUUUAUUUCUGAGCAAAGCAUCGG | 0.921
GUAUAGCACUACAUUCUUUUUUAAGUGAUGUAAACUUUAGUUUCUUUAGCCCCUUCAUUUUGAAUAUGAUGCCACAUAUGAAUGUUGAAGCUGAUACAUUGCACAAUUCU | 0.387
AUGAAGAAGAAGAGGGAAAUGGAUGAACUUAGGAGCUAUUCAUCACUAAUGAAAGUUGAAAAUAUGUCUUCAAAUCAGGAUGGCAAUGAUUCAGAUGAAUUCAUGUAAAA | 0.986
UCUUGCAUGAAAUAGAUUUACUCUGCCAAUUUUAUCCAUGUUCUUGCUAAGUCUAUUGAUGAUAUGAAUUGGAAAGGGAGAAUUUUGAAUAUGGUGAGAAAUUGGGAAAA | 2.42
CCUGUGUCUAUGUGUAUGUACACAUACUUCUGUCAGAGAGAGAGAGACACCCACCAUGGGUCUUUGAUGCUAGAUAAGCCUAGAGGGAAGAUAAAGGGGCAGGAUCAAGG | 0.747
AUUGUACCAAAACAAGAACCACUUAAACAAUGCCUAGGGAAUGAUAAGGAGGAGGAAAAUCCCAGGUCCACAGCAAAGGACACCUAAGAGUGGGAGGCUGCAGCAGUAAG | 0.695
UAAUCCGCGCUGUUCUUUGCAGCAGUGCUUCCAAGCUUUUUUUGGUGAGCCGAAUGGGCAUGGCUGCGCUGGAUCCUGCGCCUCUGGACGUGCUAGCCAUUUCCAGUGUC | 0.241
UGGGCAUCACCACCCUUGUUUGAUCUGCCUUGGAUUUCCUCUUGGAGCUUAUGUGCAGAUAGAGGUUGUACUUGGUAAGAUUUCUAAUGUGUUCUAUGGGUUUCAAUUCU | 0.308
CAAAAAAACAAUGUUAUUACUUGUAAAUUAAAAUUUAAGAGCCAUUAGCUAGAUAAACCAUGUGCUAUUCCCACCCUUUACCUGCAGUAAAUUUUAAACAAUAAUUUUAA | 0.604

Single results of other studies
Molecule | target | assay | system | conditions | scale | measurement | result
PhoQ, residues 284 288 289 292 302 303 TASMAF | PhoP, residues 12 14 15 18 19 AWHSL (Escherichia coli, UniProt P23836) | Sort-seq, measured: YFP reporter | E. coli | PhoQ-PhoP variant library, added: 10 µM Mg2+ | relative to: high Mg2+ state, higher = stronger signaling | fold induction | 2.2

Repeated from above (block 1):
Oligonucleotide | log fluorescence
TTAGGACTGAGTATCGGTTAGTGCTAG | 6.49 z-score
TTAGGTCTCGGTATCAGTTAGTGCTAG | 1.63 z-score
